Results pooled from the literature.
Every numbered part comes from another study and shows a few of its results, in no order.
Chain of UniProt P10721 (whole entry, unmodified, looked up): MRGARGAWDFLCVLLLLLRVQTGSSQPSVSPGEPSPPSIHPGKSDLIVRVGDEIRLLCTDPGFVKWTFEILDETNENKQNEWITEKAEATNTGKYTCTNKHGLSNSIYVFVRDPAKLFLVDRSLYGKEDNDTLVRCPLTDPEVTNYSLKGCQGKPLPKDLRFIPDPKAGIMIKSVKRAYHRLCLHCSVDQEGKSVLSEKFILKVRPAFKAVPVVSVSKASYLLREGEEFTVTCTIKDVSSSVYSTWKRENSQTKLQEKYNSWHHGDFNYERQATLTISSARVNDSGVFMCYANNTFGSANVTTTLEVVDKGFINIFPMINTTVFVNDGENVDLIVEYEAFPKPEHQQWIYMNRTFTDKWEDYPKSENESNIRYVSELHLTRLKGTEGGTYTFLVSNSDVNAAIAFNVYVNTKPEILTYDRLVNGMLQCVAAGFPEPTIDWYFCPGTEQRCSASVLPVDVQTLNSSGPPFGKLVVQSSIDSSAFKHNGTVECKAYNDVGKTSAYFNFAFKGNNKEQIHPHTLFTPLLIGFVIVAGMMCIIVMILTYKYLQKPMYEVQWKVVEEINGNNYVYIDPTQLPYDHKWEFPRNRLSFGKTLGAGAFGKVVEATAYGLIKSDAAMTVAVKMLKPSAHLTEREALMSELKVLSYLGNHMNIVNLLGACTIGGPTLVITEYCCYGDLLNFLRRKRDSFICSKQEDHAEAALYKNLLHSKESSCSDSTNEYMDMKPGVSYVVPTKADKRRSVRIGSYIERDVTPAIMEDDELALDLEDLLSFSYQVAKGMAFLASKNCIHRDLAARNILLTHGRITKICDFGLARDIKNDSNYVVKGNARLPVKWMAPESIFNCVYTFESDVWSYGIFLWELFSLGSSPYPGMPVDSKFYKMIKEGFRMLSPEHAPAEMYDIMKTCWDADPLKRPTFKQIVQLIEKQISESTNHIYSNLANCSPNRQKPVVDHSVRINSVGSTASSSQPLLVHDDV
Chain of UniProt Q32MK0 (whole entry, looked up): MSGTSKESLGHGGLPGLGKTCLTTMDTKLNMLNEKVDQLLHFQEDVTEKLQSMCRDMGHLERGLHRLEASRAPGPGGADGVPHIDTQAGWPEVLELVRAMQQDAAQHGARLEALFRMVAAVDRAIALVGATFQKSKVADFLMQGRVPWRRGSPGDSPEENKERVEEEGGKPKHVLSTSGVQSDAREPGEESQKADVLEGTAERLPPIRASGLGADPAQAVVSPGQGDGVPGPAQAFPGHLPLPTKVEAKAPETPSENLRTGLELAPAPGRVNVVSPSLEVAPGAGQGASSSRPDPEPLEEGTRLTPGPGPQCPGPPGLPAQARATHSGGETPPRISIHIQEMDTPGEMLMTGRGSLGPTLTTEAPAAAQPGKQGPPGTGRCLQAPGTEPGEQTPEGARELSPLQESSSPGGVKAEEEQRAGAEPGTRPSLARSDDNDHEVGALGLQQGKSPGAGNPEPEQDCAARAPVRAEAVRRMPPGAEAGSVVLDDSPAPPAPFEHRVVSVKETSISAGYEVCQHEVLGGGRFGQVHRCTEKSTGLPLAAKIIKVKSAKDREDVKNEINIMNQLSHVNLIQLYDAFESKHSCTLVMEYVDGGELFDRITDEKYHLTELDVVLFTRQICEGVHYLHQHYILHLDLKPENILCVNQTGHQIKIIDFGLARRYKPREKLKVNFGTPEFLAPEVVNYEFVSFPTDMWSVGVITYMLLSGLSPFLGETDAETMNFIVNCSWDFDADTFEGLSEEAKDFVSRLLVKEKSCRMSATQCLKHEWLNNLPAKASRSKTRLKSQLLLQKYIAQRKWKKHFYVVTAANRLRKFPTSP
Chain of UniProt Q9Y2U5 (whole entry, looked up): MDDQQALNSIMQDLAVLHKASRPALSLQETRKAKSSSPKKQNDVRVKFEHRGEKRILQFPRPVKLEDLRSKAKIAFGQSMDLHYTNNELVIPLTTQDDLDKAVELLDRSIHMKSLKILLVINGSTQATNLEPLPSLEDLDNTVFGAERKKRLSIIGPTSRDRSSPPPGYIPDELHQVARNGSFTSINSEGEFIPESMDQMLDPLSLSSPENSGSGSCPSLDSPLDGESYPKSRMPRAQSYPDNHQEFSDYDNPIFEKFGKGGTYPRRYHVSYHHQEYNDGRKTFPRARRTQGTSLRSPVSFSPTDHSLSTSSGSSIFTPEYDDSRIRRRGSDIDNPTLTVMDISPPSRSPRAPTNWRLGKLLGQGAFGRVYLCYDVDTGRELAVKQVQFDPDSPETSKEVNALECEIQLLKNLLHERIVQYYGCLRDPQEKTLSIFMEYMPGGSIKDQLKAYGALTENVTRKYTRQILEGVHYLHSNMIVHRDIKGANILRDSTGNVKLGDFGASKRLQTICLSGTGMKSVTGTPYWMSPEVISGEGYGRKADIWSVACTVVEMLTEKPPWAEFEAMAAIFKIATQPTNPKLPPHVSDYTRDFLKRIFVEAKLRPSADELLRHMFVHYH
Chain of UniProt Q9Y3S1 (whole entry, looked up): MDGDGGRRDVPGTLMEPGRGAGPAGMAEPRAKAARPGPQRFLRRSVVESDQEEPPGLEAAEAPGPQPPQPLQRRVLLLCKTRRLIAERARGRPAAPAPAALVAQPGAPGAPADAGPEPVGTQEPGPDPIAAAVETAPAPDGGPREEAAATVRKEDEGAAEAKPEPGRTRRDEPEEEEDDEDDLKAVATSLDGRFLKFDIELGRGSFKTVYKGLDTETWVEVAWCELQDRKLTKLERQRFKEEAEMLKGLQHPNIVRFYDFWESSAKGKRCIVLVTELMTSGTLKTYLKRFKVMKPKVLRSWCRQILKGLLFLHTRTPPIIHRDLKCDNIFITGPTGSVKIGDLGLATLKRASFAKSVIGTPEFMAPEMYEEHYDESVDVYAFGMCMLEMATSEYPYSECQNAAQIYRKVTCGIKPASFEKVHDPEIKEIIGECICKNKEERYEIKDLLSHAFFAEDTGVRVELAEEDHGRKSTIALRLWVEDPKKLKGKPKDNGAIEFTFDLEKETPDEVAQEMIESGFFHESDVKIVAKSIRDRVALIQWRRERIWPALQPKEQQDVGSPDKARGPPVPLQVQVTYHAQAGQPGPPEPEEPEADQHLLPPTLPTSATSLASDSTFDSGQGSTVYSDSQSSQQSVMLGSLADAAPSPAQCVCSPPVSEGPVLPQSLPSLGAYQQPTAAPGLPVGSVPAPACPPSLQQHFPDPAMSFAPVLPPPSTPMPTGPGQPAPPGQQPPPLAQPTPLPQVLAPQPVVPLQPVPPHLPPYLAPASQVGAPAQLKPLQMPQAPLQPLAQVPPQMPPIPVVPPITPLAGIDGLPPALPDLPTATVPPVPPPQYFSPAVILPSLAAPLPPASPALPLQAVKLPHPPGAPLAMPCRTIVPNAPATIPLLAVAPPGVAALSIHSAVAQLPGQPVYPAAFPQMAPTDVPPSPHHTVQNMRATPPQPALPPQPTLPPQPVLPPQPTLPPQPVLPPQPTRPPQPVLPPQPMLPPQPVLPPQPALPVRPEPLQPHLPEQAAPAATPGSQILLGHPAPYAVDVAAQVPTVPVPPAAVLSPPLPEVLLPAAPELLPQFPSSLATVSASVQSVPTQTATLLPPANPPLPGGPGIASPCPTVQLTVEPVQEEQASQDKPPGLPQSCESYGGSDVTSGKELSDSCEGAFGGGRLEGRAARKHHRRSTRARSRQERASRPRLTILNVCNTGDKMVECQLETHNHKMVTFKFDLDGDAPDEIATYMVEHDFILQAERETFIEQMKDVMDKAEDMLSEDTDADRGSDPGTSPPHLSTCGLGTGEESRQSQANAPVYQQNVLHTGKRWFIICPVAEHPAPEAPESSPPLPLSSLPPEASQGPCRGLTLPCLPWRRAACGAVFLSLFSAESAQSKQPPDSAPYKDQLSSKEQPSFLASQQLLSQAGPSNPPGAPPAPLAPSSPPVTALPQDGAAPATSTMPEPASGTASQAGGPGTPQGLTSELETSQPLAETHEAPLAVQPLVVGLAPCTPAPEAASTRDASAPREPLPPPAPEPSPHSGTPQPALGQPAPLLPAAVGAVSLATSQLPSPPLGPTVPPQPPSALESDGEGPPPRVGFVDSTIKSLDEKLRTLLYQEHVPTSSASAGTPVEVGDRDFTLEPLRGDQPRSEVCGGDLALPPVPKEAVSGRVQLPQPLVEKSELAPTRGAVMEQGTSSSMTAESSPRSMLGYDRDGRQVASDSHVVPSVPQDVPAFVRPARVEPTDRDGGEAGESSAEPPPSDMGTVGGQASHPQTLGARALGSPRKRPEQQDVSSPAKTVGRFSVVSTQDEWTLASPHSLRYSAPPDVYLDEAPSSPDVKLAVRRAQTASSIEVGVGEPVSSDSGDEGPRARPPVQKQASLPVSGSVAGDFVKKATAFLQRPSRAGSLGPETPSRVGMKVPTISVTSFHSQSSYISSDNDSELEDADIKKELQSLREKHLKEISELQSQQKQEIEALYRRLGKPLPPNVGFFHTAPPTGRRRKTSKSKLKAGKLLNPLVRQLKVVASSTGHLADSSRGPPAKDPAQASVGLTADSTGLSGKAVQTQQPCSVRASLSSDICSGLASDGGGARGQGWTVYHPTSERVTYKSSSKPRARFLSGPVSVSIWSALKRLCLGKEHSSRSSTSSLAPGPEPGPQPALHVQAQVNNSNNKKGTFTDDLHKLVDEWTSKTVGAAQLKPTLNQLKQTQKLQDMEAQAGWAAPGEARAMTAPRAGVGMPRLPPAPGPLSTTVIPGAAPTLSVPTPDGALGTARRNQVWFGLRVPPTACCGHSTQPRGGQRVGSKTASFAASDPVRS
Chain of UniProt P52564 (whole entry, looked up): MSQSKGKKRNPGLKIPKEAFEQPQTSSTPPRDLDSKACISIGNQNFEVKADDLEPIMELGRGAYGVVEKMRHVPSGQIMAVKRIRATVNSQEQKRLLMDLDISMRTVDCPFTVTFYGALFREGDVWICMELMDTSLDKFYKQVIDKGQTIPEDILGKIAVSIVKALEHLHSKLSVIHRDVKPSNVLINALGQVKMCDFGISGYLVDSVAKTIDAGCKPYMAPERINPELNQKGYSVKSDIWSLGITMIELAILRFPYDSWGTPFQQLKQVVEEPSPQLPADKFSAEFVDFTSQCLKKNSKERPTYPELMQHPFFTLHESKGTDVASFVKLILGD

Sample 1
Host: mouse
Sample: microsomes or S9
Tested at: 2 µM
Time: 0.5 h
Endpoint: remaining compound
CCn1cnc2c(Nc3ccc(OC)c(Cl)c3)nc(Cl)nc21: 0%
CCn1nc(C)c(CNC(=O)NCCCOC)c1C: 98.4%
c1ccc(OCC2=NN=C(COc3ccccc3)NN2)cc1: 69.7%
Cc1cc(Oc2ccc(-n3cncn3)cc2)nc(C)n1: 59%
C/C(=C\COc1ccc2ccc(=O)oc2c1)CC/C=C(\C)CCC(=O)C(C)(C)O: 11%
CCn1ccc(C(=O)Nc2c(C)cc(C)cc2C)n1: 52.2%
Cc1nc2nc(CC(=O)N3CCC(C)CC3)nn2c(C)c1Cl: 3.75%
CC1CCN(CCNS(=O)(=O)c2ccc(-c3ccc(=O)[nH]n3)s2)CC1: 98.5%
CC(C)c1nc(CN(C)Cc2cnc(N(C)C)nc2)cs1: 0.0164%
CNC1=C(c2cc(Br)ccn2)C(=O)C(c2cccc(Cl)c2)O1 (stereo not shown): > 100%
Cc1nn(C)c2ncnc(NCc3cc4ccccc4[nH]3)c12: 16.3%
Fc1cc2nc(-c3cnc(-c4cnccn4)s3)[nH]c2cc1F: 0.893%

Sample 2
Structure (SMILES): CNCc1ccccc1-c1csc([C@@H](C)Nc2nc(C)nc3cc(OC)c(OC)cc23)c1
Observed: cell-free assay
Technique: competition with immobilised ligand
Tested at: 1 µM
Endpoint: remaining binding
Protein-tyrosine kinase 6 (PTK6, Homo sapiens, UniProt Q13882): 100%
Mitogen-activated protein kinase kinase kinase 2 (MAP3K2, Homo sapiens, UniProt Q9Y2U5): 87%
Discoidin domain-containing receptor 2 (DDR2, Homo sapiens, UniProt Q16832): 92%
Cyclin-dependent kinase 7 (CDK7, Homo sapiens, UniProt P50613): 63%
Dual specificity mitogen-activated protein kinase kinase 5 (MAP2K5, Homo sapiens, UniProt Q13163): 91%
Myosin light chain kinase (MYLK3, Homo sapiens, UniProt Q32MK0): 96%
Mast/stem cell growth factor receptor Kit (KIT, Homo sapiens, UniProt P10721, V559D/V654A): 89%
Inhibitor of nuclear factor kappa-B kinase subunit alpha (CHUK, Homo sapiens, UniProt O15111): 100%
Epidermal growth factor receptor (EGFR, Homo sapiens, UniProt P00533, L861Q): 97%
Serine/threonine-protein kinase ULK3 (ULK3, Homo sapiens, UniProt Q6PHR2): 78%
Receptor-type tyrosine-protein kinase FLT3 (FLT3, Homo sapiens, UniProt P36888, D835V): 70%
Ephrin type-A receptor 8 (EPHA8, Homo sapiens, UniProt P29322): 100%
Tyrosine-protein kinase ABL1, non-phosphorylated (ABL1, Homo sapiens, UniProt P00519, T315I): 100%
Non-receptor tyrosine-protein kinase TYK2, JH1 (TYK2, Homo sapiens, UniProt P29597): 99%
Epidermal growth factor receptor (EGFR, Homo sapiens, UniProt P00533, A750P/del747-749): 82%

Sample 3
Compound: CC(C)c1nn(-c2c(Cl)cccc2Cl)c2nc(Cc3ccc(OCCO)cc3)[nH]c(=O)c12
Observed: enzyme activity
Mode: inhibitor
Tested at: 0.5 µM
Relative to: control
Endpoint: remaining activity
Serine/threonine-protein kinase Chk1 (CHEK1, Homo sapiens, UniProt O14757): 96.2%
Mitogen-activated protein kinase kinase kinase kinase 2 (MAP4K2, Homo sapiens, UniProt Q12851): 106%
Leucine-rich repeat serine/threonine-protein kinase 2 (LRRK2, Homo sapiens, UniProt Q5S007): 109%
Mitogen-activated protein kinase 13 (MAPK13, Homo sapiens, UniProt O15264): 104%
Mitogen-activated protein kinase 12 (MAPK12, Homo sapiens, UniProt P53778): 103%
Serine/threonine-protein kinase Nek4 (NEK4, Homo sapiens, UniProt P51957): 96.3%
Tyrosine-protein kinase Lyn (LYN, Homo sapiens, UniProt P07948): 102%
Serine/threonine-protein kinase PLK2 (PLK2, Homo sapiens, UniProt Q9NYY3): 99.8%
Casein kinase II subunit alpha (CSNK2A1, Homo sapiens, UniProt P68400): 88.8%
Serine/threonine-protein kinase WNK2 (WNK2, Homo sapiens, UniProt Q9Y3S1): 95.7%
Protein kinase C delta type (PRKCD, Homo sapiens, UniProt Q05655): 108%
Mast/stem cell growth factor receptor Kit (KIT, Homo sapiens, UniProt P10721): 71%
Protein kinase C iota type (PRKCI, Homo sapiens, UniProt P41743): 95.2%
Cyclin-dependent kinase 9, with cyclin T1 (CDK9, Homo sapiens, UniProt P50750): 22.7%
cGMP-dependent protein kinase 1 (PRKG1, Homo sapiens, UniProt Q13976): 92.3%
Casein kinase I isoform alpha (CSNK1A1, Homo sapiens, UniProt P48729): 99%
Interleukin-1 receptor-associated kinase 4 (IRAK4, Homo sapiens, UniProt Q9NWZ3): 112%
Tyrosine-protein kinase BTK (BTK, Homo sapiens, UniProt Q06187): 100%
MAP kinase-interacting serine/threonine-protein kinase 2 (MKNK2, Homo sapiens, UniProt Q9HBH9): 88.9%
Dual specificity mitogen-activated protein kinase kinase 6 (MAP2K6, Homo sapiens, UniProt P52564): 92.7%
Ephrin type-A receptor 5 (EPHA5, Homo sapiens, UniProt P54756): 110%

Single results of other studies
O=C1CCC(N2Cc3c(ccc4c3OCC43CCC(Cc4ccccc4)CC3)C2=O)C(=O)N1 (stereo not shown)  protein remaining (CRBN/Zinc finger protein Helios (Homo sapiens, UniProt Q96SW2+Q9UKS7); degrader, HiBiT; HEK293; 13.72 nM): 84.5%

Repeated from above (sample 3):
Serine/threonine-protein kinase Chk1 (CHEK1, Homo sapiens, UniProt O14757): 96.2%
Mitogen-activated protein kinase kinase kinase kinase 2 (MAP4K2, Homo sapiens, UniProt Q12851): 106%
Leucine-rich repeat serine/threonine-protein kinase 2 (LRRK2, Homo sapiens, UniProt Q5S007): 109%
